Published values pooled from the literature.
Each line is one published result; not all experiments were run side by side. Numbers after ± are the reported error.

CC(C)C[C@H](NC(=O)[C@H](CO)NC(=O)[C@H](CCCNC(=N)N)NC(=O)[C@H](CC(=O)O)NC(=O)[C@H](CCC(=O)O)NC(=O)[C@H](C)NC(=O)[C@@H]1CCCN1C(=O)[C@H](C)NC(=O)[C@H](CCC(=O)O)NC(=O)[C@@H]1CCCN1C(=O)[C@@H]1CCCN1)C(N)=O
dopamine level (HPLC-EC; rat F344, unilateral 6-OHDA lesion, contralateral striatum, wet tissue; intranasal, 300 µg daily, 5 weeks post lesion): 12300 ± 555 ng/g

Cn1cc(Nc2nccc(-c3ccc4c(c3)CN(C3COC3)CC[C@H]4NC(=O)c3cn(C(C)(C)C)nn3)n2)cn1
EC50 (anti-IgD-induced B-cell activation, inhibitor, measured: CD69; B cells, healthy human volunteers, whole blood ex vivo; vs plasma concentration): 55 nM

CC(=O)Nc1cccc(OCc2nnc(SCc3ccc(C(F)(F)F)cc3)o2)c1
immobility duration decrease (forced swimming test; mice; 40 mg/kg, 0.5 h; reference: control): 52.3%

Cc1ccc(NC(=O)c2ccc(CN3CCN(C)CC3)cc2)cc1Nc1nccc(-c2cccnc2)n1
mPAP (rat, SU5416/hypoxia PAH model; oral, 15.0 mg/kg once daily, day 49): 37.4 ± 3.9 mmHg

CCOc1ccc(-c2nc(-c3cccc4c3CCC4NCCO)no2)cc1OCC (centres unmarked)
ED50 (blood B220+ cell count reduction, flow cytometry; mouse; intraperitoneal, 5 h): 1 mg/kg

COc1ccc2c(c1)c(CC(=O)O)c(C)n2C(=O)c1ccc(Cl)cc1
cytokine level (multiplex bead immunoassay, measured: KC; CD-1 mice, serum; ip, 20 mg/kg, three-injection regimen, together with: LPS 3 mg/kg): 978 ± 479 pg/mL

CC[C@H](C)[C@H](N)C(=O)N[C@@H](CC(C)C)C(=O)N1CCC[C@H]1C(=O)N[C@@H](Cc1c[nH]c2ccccc12)C(=O)N[C@@H](CCCCN)C(=O)N[C@@H](Cc1c[nH]c2ccccc12)C(=O)N1CCC[C@H]1C(=O)N[C@@H](Cc1c[nH]c2ccccc12)C(=O)N[C@@H](Cc1c[nH]c2ccccc12)C(=O)N1CCC[C@H]1C(=O)N[C@@H](Cc1c[nH]c2ccccc12)C(=O)N[C@@H](CCCNC(=N)N)C(=O)N[C@@H](CCCNC(=N)N)C(N)=O
leakage (carboxyfluorescein release; EYPC vesicles; 10 µg/mL, 250 s, pH 7.4, 25 °C; reference: Triton X-100): 18%

CC(C)[C@H]1C(=O)N[C@@H](CCCNC(=N)N)C(=O)NCC(=O)N[C@@H](CC(=O)O)C(=O)N[C@H](Cc2ccccc2)C(=O)N1C
progression-free time (human; concentration not given): > 100 weeks

CC12CCC(CC1=O)C2(C)C (centres unmarked)
proportion of food consumed (two-choice feeding trial; Brachylagus idahoensis; 1% dry weight in diet, 72 h, together with: monoterpene mixture 1% dry weight): 66 ± 0.08%

gamma-MSH
heart rate response resolution time (Sprague Dawley rat, urethane-anaesthetised; iv, 15 nmol): 5.93 ± 0.97 min

CS/C(S)=N/CCCC[S+](C)[O-] (racemic)
mRNA fold change (RT-PCR, measured: Alad; rat, liver; oral gavage, 200 mg/kg, 96 h, dosed for four days; reference: vehicle): 0.553

A few entries again:
Cn1cc(Nc2nccc(-c3ccc4c(c3)CN(C3COC3)CC[C@H]4NC(=O)c3cn(C(C)(C)C)nn3)n2)cn1
EC50 (anti-IgD-induced B-cell activation, inhibitor, measured: CD69; B cells, healthy human volunteers, whole blood ex vivo; vs plasma concentration): 55 nM
